Published values pooled from the literature.
Lines come from different studies, so protocols differ.
HCRTR1: Orexin/Hypocretin receptor type 1 (HCRTR1, Homo sapiens, UniProt O43613)
Sequence of UniProt O43613 (whole entry, looked up): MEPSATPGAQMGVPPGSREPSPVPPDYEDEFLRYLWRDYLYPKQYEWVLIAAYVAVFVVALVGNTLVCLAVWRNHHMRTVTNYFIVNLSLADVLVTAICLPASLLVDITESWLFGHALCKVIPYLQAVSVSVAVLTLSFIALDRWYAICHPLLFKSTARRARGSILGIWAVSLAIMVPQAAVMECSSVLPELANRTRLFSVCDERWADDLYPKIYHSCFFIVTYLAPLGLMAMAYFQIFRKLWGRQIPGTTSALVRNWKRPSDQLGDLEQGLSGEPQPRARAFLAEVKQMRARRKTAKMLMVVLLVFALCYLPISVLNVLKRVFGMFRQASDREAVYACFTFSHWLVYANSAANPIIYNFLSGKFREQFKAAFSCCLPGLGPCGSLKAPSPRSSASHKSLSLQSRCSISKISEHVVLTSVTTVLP

Compound	target or system	test	setting	endpoint	result
Cc1c(C)c2c(c(C)c1O)CCC(C)(C(=O)NN=C1C(=O)Nc3ccc(F)cc31)O2 (centres unmarked)	MCF7	cell growth or viability, SRB	48 h	GI50	62700 nM
COc1ccc(N(C)c2nc(Cl)ccc2CO)cc1	human tumour cell panel	cell growth, SRB	range over compounds, cells	GI50	200 to 3250 nM
C#C[C@@]1(O)[C@@H](CO)O[C@@H](n2cc(Cl)c3c(N)ncnc32)[C@@H]1O	DU-145	cell growth or viability, SRB	48 h	GI50	134 nM
CCC(C)Oc1nc(N)nc(N)c1C#N (centres unmarked)	HT-29	cell growth or viability, SRB	72 h	GI50	> 100000 nM
CCOC(=O)c1ccc(C(F)(F)F)nc1N(C)c1ccc(OC)cc1	human tumour cell panel	cell growth, SRB	range over compounds, cells	GI50	190 to 1810 nM
CCCNc1cc(CC2c3cc(OC)c(OC)cc3CCN2CC(=O)NCc2ccccc2)ccc1OC (centres unmarked)	HCRTR1	calcium signal, antagonist, fluorescence		Kb	920 nM
NS(=O)(=O)c1ccc(Nc2nc(OCC3CCCCC3)c3nc[nH]c3n2)cc1	HT-29	cell growth or viability, SRB	72 h	GI50	13000 nM
COCc1ccc(C(F)(F)F)nc1N(C)c1ccc(OC)cc1	human tumour cell panel	cell growth, SRB	range over compounds, cells	GI50	200 to 3250 nM
COc1cc2c(cc1OC)C(Cc1ccc(OC(C)C)cc1)N(CC(=O)NCc1ccccc1)CC2 (centres unmarked)	HCRTR1	calcium signal, antagonist, fluorescence		Kb	489 nM
Cc1c(C)c2c(c(C)c1OCc1ccccc1)CCC(C)(C(=O)NN=C1C(=O)Nc3ccccc31)O2 (centres unmarked)	MCF7	cell growth or viability, SRB	48 h	GI50	45900 nM
C#C[C@@]1(O)[C@@H](CO)O[C@@H](n2cc(Br)c3c(N)ncnc32)[C@@H]1O	LOX IMVI	cell growth or viability, SRB	48 h	GI50	67 nM
